{"data": "Published values gathered from unrelated publications", "note": "Each numbered part is a random draw from the data of one study; scales do not carry over between parts. Positions count from the first letter of the parent shown."}
{"data": "Block 1", "target": "RNA binding protein fox-1 homolog 2, RRM domain, GST-SBP tag (RBFOX2, Homo sapiens, UniProt O43251-10, residues 100-194)", "technique": "RNA Bind-n-Seq", "molecule type": "RNA", "sample": "in vitro", "concentration": "365 nM", "notes": "natural RNA segment, single round, ends assumed", "baseline": "no-protein control", "reading": "higher = stronger binding", "Residues (chain)": "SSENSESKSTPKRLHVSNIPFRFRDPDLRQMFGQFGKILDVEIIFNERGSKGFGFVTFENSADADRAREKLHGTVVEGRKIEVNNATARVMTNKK"}
{"Strand": "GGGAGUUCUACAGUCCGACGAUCUUGGAUAAUUGAUGUUUAGCCAAGGCUGGCCUCAAAAUACUAGUAAUCUUUCUGUAAGCCUCUCAAGUACUGGGAUUACAGGCAUGAACCACCAUGCCUAUAGCCACAGCUGGAAUUCUCGGGUGCCAA", "RBNS enrichment (R)": 0.184}
{"Strand": "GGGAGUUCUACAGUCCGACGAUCCCUGGUCAGCUCCUCACGUAAUUGGGGGUGGAGGGAAAGCAUGGUGGUGCCCUGGGCCGUCCCUGUGUGAACGCAGGCAAAAGCAGCCCAGUCCCCCUCACUGCUUGAGCUGGAAUUCUCGGGUGCCAA", "RBNS enrichment (R)": 0.518}
{"Strand": "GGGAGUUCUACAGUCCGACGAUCUUUGUUUGGGGUUUUUUUGUUGUUGUUGGUUUUUGUUUUUGUUUUCGUUUUUGCAUGAAUCGCGAUAUUUUGUACUUUUAAAAACUCCAACUUCCACAAAACAACUCAAGUGGAAUUCUCGGGUGCCAA", "RBNS enrichment (R)": 50.1}
{"Strand": "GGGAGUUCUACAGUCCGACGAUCCUGCCACGUGUCCCGUGUGCUCCAGUGCCCGUGCCCGUCACCGCCCCUCCACGCCCUCCGUGAGGUUGUCCAGGCUGUGUUCUCUCGCAUGCUUCUCUUCUAUAUAACCCUGGAAUUCUCGGGUGCCAA", "RBNS enrichment (R)": 8.9}
{"Strand": "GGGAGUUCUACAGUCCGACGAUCCUGGACAGGGCUUUGCCCUUGGAGGAUCCCCAGGUGGCCUUACCCGUGAUUCUUACUCGGCAUCCUCCAUUCCCCAAACUCCCUCCUCCCUGUUAAAUGUCAACCUAGACUGGAAUUCUCGGGUGCCAA", "RBNS enrichment (R)": 0.625}
{"Strand": "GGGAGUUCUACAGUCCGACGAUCUUACGGAAAUUUUUUUACCUGACUUGCUAUGAAAAAACUCAUCACACAAGAAGAGAAACAGUAACCUCACUUUGAAAAUUAGCUCCACUCAAGACUAGUCCACGAACGAGUGGAAUUCUCGGGUGCCAA", "RBNS enrichment (R)": 0.44}
{"Strand": "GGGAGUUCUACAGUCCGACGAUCGUUGAGACCCCAGACUCUAGCCACACACAUGCCACAGACAUGCCAGGGAGUGGCAAAGCACUGACUCCUGAGCUCCCUUCCUCACUAGGACUCCAGUGUGACCCUGCACUUGGAAUUCUCGGGUGCCAA", "RBNS enrichment (R)": 0.451}
{"data": "Block 2", "target": "CCNB3, cyclin fold, Cln2 fusion (human)", "technique": "yeast growth competition, sequencing", "sample": "yeast", "notes": "weak parent motif", "baseline": "not given", "reading": "higher = stronger binding", "starting sequence": "SLBP docking peptide (human); ARYKRKLLINDFG"}
{"Change": "ARYKRKLQINDFG [L8Q]", "normalised enrichment score": 0.119}
{"Change": "ARYKRKLLGNDFG [I9G]", "normalised enrichment score": 0.238}
{"Change": "ARYMRKLLINDFG [K4M]", "normalised enrichment score": 0.213}
{"Change": "GRYKRKLLINDFG [A1G]", "normalised enrichment score": 0.512}
{"Change": "ARYKRKLLINDDG [F12D]", "normalised enrichment score": 0.192}
{"Change": "ARYKRYLLINDFG [K6Y]", "normalised enrichment score": 0.13}
{"Change": "ARYKRKLLITDFG [N10T]", "normalised enrichment score": 0.13}
{"data": "Block 3", "target": "PABPC1L2, full length, GST fusion (mouse, UniProt A0ABA7IW68)", "technique": "RNAcompete", "molecule type": "RNA", "sample": "in vitro", "concentration": "20 nM", "notes": "7-mer, probes averaged, single round", "baseline": "mean of 7-mers", "reading": "higher = stronger binding", "Residues (chain)": "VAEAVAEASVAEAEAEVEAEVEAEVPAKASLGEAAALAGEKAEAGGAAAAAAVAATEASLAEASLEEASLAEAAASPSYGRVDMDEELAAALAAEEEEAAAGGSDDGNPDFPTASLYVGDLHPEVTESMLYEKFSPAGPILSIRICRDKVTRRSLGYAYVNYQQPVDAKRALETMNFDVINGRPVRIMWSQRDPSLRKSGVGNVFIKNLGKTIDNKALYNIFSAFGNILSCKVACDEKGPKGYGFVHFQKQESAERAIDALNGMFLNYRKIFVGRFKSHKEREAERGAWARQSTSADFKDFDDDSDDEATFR"}
{"Strand": "GGUGGUA", "7-mer Z-score": 0.153}
{"Strand": "CCGCUGC", "7-mer Z-score": -0.412}
{"Strand": "AGUCUAA", "7-mer Z-score": -0.135}
{"Strand": "UCCCCUC", "7-mer Z-score": -0.38}
{"Strand": "CAUUAUC", "7-mer Z-score": -0.182}
{"Strand": "UGGAAAG", "7-mer Z-score": -0.00289}
{"Strand": "CGGGGGC", "7-mer Z-score": 0.229}
{"Strand": "UCAACGG", "7-mer Z-score": -0.11}
{"Strand": "AUUUCUA", "7-mer Z-score": -0.342}
{"Strand": "UGCGGGA", "7-mer Z-score": 0.119}
{"Strand": "CCCGCCC", "7-mer Z-score": -0.57}
{"data": "Mixed results"}
{"Substance": "PhoQ, residues 284 288 289 292 302 303 TLMATV", "target": "PhoP, residues 12 14 15 18 19 IFFTR (Escherichia coli, UniProt P23836)", "assay": "Sort-seq, refers to: YFP reporter", "system": "E. coli", "conditions": "PhoQ-PhoP variant library, with: 10 µM Mg2+", "scale": "baseline: high Mg2+ state, higher = stronger signaling", "quantity": "fold induction", "value": 1.21}
{"note": "Some of these lines once more (block 2):"}
{"Change": "GRYKRKLLINDFG [A1G]", "normalised enrichment score": 0.512}
{"Change": "ARYKRKLLINDDG [F12D]", "normalised enrichment score": 0.192}
{"Change": "ARYKRYLLINDFG [K6Y]", "normalised enrichment score": 0.13}
{"Change": "ARYKRKLLITDFG [N10T]", "normalised enrichment score": 0.13}
